Results gathered from unrelated publications.
Numbered parts are unrelated; each lists some results of a single study. Changes are numbered by the printed parent chain.
Sequence of UniProt O15294 (whole entry, looked up): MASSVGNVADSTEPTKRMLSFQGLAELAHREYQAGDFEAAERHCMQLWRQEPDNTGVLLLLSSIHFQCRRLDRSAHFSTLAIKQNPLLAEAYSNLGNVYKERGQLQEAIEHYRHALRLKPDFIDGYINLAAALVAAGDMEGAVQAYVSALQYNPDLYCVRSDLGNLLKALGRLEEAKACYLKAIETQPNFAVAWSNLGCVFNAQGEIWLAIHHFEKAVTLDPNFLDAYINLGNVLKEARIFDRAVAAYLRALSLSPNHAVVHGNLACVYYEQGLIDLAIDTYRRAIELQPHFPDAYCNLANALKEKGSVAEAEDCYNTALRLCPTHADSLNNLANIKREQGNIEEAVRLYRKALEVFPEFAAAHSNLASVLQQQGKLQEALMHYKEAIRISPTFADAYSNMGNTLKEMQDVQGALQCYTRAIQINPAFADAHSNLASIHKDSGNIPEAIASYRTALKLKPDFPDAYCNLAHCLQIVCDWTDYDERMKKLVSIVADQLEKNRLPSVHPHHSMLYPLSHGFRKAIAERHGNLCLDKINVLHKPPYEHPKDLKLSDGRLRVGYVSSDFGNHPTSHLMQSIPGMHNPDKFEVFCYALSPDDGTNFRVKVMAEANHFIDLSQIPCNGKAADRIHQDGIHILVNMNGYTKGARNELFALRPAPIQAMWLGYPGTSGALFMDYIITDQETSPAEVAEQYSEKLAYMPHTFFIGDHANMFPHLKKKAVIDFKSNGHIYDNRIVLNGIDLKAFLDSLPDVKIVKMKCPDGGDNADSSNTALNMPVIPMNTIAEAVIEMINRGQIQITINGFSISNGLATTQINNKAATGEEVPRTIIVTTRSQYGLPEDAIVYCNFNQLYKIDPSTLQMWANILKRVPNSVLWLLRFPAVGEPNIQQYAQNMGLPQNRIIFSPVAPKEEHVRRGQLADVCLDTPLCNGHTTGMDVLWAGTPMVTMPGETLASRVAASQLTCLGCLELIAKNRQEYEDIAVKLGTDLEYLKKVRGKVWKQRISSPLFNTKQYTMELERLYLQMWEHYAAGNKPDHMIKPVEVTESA

Set 1
Target: ABI1, truncated, D143A, DHFR fusion (Arabidopsis thaliana)
Method: DHFR PCA, deep sequencing
Sample: yeast
Notes: methotrexate growth selection, single substitutions
With: (+)-ABA 200 µM
Reference: wild-type fitted maximum
Reading: higher = stronger binding
Quantity: relative binding score
Parent: PYL1, truncated, DHFR fusion (Arabidopsis thaliana); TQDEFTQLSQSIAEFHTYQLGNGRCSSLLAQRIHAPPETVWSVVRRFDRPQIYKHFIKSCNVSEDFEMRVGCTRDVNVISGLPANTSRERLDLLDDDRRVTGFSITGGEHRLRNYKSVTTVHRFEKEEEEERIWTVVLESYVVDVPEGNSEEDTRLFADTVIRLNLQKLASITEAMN; partner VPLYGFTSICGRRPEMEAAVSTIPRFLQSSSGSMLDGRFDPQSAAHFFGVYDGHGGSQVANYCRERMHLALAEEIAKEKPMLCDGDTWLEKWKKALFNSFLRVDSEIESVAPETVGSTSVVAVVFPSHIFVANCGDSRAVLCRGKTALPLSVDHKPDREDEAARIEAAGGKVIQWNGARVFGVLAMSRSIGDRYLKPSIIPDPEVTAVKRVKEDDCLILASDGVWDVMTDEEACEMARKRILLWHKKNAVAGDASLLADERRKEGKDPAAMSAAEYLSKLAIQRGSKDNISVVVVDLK
C60H: 3.56%
S11A: 90.7%
S150D: 91.4%
E130N: 115%
I133D: 116%
K116M: 67%
L8T: 78.6%
H122R: 27.9%

Set 2
Target: Histone acetyltransferase KAT6A, winged helix 1, GST fusion (KAT6A, Homo sapiens, UniProt Q92794, residues 1-85)
Method: protein binding microarray
Molecule type: double-stranded DNA, one strand shown
Sample: in vitro
Tested at: not given
Notes: 8-mer, flanks averaged, mean of 2 arrays, mostly near background
Reference: not given
Reading: higher = stronger binding
Quantity: E-score
Residues (chain): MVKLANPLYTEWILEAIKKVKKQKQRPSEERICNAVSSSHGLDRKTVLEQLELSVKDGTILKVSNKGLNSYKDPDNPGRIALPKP
CGGGATTC: 0.236
AGTCATCC: -0.0717
GAAGCATA: -0.165
AGGTACAA: -0.261
GCCTTCCA: -0.109
GGAGATAA: -0.00767
CATGAGCG: 0.303
CTCAGGGA: -0.263

Further values, each from its own experiment
NAA10 (Homo sapiens, UniProt P41227)
interaction screen (NAA15 (Homo sapiens, UniProt Q9BXJ9); cross-linking MS; hits only): cross-linked

VVPHMMHQWEHHHA
minimum log2 enrichment ratio (OGT (Homo sapiens, UniProt O15294); binding, phage display NGS; peptide; panning round 2; reference: input library): 4.3

PGM1 (Homo sapiens, UniProt P36871)
cross-linked residues (MAGT1 (Homo sapiens, UniProt Q9H0U3); cross-linking MS; cell fractions; with: DSSO): T562 to K50

SYF2 (Homo sapiens, UniProt O95926)
cross-linked residues (CRNKL1 (Homo sapiens, UniProt Q9BZJ0); cross-linking MS; cell fractions; with: DMTMM): E187 to K288

SRSF5 (Homo sapiens, UniProt Q13243)
cross-linked residues (MAGI3 (Homo sapiens, UniProt Q5TCQ9); cross-linking MS; cell fractions; with: DSSO): K158 to K1312

A few entries again (further values, each from its own experiment):
NAA10 (Homo sapiens, UniProt P41227)
interaction screen (NAA15 (Homo sapiens, UniProt Q9BXJ9); cross-linking MS; hits only): cross-linked

VVPHMMHQWEHHHA
minimum log2 enrichment ratio (OGT (Homo sapiens, UniProt O15294); binding, phage display NGS; peptide; panning round 2; reference: input library): 4.3

PGM1 (Homo sapiens, UniProt P36871)
cross-linked residues (MAGT1 (Homo sapiens, UniProt Q9H0U3); cross-linking MS; cell fractions; with: DSSO): T562 to K50
